Measured values gathered from unrelated publications.
Each numbered part is a random draw from the data of one study; scales do not carry over between parts.
Sequence of UniProt Q5XXA6 (whole entry, unmodified, looked up): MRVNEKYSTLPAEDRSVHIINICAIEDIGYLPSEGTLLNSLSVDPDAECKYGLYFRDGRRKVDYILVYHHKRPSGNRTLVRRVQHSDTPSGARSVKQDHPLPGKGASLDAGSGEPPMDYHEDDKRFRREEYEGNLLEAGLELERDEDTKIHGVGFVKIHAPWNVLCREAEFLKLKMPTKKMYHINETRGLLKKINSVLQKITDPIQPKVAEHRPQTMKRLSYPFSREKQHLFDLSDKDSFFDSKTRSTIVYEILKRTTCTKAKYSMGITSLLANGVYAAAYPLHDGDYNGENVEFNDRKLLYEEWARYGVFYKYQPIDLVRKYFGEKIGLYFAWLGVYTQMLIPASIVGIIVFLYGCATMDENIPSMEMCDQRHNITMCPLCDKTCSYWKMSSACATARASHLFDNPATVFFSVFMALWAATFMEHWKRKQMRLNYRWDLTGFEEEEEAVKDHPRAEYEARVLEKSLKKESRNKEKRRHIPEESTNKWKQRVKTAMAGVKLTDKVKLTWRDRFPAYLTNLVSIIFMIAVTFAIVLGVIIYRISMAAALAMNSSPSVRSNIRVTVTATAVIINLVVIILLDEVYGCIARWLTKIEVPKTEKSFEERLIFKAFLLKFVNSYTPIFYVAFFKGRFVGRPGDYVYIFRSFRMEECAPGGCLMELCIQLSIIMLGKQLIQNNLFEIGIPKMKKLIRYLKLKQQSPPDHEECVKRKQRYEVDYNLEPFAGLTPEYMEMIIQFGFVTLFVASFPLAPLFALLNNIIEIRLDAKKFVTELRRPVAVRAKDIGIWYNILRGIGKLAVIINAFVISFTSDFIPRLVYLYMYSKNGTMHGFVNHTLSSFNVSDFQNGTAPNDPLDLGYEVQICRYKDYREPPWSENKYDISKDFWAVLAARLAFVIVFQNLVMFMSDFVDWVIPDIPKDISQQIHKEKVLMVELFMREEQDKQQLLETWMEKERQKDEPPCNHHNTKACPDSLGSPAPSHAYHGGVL
Sequence of UniProt O75747 (whole entry, looked up): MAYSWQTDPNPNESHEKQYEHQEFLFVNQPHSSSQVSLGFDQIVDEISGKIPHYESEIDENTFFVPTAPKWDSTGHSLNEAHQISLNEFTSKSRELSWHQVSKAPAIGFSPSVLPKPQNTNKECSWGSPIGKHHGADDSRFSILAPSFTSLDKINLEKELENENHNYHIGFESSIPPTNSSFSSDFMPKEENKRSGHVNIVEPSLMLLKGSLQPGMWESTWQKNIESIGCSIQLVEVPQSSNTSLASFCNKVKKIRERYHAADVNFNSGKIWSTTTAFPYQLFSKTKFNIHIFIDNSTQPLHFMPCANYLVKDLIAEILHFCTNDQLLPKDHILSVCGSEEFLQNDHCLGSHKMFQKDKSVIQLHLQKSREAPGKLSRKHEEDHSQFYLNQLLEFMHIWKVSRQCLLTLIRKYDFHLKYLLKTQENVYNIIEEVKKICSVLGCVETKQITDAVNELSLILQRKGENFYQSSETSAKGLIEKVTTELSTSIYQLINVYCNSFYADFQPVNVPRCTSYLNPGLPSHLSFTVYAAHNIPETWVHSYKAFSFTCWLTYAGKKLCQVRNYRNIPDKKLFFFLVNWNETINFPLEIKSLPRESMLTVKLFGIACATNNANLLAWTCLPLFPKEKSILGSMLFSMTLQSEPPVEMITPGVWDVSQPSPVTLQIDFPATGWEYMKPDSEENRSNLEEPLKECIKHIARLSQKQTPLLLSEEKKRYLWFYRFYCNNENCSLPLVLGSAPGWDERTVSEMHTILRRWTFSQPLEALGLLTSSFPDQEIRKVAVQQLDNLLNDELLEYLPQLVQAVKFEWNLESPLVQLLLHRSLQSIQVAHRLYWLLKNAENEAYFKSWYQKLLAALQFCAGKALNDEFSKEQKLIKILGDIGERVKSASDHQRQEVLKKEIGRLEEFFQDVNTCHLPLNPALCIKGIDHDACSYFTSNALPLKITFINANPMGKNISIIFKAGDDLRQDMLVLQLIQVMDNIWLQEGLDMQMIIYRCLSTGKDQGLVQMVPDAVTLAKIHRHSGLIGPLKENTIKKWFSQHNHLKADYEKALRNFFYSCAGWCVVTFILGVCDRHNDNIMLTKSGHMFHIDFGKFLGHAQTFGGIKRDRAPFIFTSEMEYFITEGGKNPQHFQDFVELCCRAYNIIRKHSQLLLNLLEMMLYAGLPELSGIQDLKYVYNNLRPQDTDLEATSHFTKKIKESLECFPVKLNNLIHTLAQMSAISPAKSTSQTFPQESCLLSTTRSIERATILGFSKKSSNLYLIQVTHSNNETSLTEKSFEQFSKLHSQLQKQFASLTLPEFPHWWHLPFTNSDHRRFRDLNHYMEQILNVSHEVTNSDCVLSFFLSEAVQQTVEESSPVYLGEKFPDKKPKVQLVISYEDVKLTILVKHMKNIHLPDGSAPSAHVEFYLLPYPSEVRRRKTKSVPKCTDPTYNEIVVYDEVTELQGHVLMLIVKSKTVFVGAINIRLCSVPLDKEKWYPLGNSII
Sequence of UniProt Q9NYL2 (whole entry, looked up): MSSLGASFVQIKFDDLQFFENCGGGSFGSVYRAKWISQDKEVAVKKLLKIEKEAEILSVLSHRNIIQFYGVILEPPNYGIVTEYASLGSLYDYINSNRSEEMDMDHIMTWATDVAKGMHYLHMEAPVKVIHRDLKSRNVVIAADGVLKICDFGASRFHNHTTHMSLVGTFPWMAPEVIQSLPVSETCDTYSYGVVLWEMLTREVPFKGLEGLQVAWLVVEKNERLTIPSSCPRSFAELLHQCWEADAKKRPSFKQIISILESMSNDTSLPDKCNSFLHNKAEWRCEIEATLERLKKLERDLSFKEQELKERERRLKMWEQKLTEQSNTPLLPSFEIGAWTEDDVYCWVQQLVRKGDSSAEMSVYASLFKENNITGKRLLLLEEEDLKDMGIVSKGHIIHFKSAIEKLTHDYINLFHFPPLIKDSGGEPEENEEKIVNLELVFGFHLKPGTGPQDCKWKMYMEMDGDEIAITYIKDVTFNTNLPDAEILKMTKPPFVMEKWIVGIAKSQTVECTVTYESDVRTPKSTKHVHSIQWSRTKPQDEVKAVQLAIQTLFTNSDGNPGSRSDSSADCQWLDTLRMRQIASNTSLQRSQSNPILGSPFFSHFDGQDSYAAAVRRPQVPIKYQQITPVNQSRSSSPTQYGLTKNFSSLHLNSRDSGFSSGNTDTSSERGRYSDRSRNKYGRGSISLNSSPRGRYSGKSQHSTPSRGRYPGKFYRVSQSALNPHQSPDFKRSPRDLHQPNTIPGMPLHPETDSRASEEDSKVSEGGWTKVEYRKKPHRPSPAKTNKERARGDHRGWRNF
Sequence of UniProt Q8IYT8 (whole entry, looked up): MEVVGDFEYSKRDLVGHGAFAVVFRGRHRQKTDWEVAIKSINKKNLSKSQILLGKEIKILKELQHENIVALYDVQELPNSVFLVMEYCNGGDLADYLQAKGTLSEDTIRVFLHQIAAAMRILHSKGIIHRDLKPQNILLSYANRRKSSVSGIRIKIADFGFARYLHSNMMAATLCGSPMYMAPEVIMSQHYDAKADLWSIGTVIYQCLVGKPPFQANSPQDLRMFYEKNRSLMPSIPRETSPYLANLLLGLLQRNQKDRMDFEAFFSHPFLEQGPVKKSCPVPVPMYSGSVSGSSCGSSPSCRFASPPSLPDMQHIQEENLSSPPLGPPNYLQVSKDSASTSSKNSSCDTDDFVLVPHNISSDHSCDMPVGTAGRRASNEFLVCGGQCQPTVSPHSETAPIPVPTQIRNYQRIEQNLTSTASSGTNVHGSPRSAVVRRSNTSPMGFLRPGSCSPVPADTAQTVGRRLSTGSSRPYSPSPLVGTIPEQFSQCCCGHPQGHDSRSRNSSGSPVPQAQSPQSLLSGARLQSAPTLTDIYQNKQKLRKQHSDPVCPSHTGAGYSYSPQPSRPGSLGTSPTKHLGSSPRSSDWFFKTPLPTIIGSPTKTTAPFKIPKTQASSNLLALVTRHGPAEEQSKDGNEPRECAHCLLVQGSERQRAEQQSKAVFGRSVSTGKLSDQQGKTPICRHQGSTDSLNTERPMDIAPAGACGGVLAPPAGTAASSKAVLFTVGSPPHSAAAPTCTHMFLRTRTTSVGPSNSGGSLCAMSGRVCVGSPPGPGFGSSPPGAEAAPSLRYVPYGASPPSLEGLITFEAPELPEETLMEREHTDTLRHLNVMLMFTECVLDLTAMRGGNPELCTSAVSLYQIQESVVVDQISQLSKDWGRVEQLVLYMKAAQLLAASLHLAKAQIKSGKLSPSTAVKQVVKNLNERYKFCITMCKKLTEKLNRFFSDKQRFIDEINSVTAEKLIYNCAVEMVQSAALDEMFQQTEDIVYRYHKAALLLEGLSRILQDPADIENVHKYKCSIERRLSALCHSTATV
Sequence of UniProt O43293 (whole entry, looked up): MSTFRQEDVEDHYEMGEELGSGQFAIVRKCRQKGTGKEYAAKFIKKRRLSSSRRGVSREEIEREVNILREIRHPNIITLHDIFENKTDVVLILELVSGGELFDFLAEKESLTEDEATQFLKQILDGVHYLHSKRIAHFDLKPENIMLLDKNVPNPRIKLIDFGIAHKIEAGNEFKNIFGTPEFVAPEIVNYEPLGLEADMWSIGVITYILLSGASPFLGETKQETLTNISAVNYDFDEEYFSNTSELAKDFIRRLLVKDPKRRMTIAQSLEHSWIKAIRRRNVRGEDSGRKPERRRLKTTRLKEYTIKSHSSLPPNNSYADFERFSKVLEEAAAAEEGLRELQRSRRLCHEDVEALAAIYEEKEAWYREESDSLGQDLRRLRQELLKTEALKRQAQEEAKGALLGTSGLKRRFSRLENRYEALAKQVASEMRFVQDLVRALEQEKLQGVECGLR

Sample 1
Cell line: mouse MPNST tumor cells
Method: high-content immunofluorescence imaging
Measured: nuclear SOX9
Concentration: 10 µM
Time: 12 h
Notes: mean of 2 replicates
Relative to: DMSO control
Direction: higher = more nuclear SOX9
SMILES	nuclear SOX9 intensity
NC(=O)n1c(O)c(C(=O)c2cccs2)c2cc(Cl)ccc21	86.3 % of DMSO
Cc1ccc(O)c(NC(=O)CCc2ccccc2)c1	80.2 % of DMSO
O=C(Nc1ccc(C(F)(F)F)cn1)N1CCN(c2ncccc2C(F)(F)F)CC1	118 % of DMSO
CC(NC(=O)Cc1cc(F)cc(F)c1)C(=O)NC1C(=O)N(C)c2ccccc2-c2ccccc21 (stereo not shown)	109 % of DMSO
C[C@@H]1C[C@H]2[C@@H]3CCC4=CC(=O)C=C[C@]4(C)[C@@]3(F)[C@@H](O)C[C@]2(C)[C@@]1(O)C(=O)CO	72.4 % of DMSO
CCCCC1(COC(=O)CCC(=O)O)C(=O)N(c2ccccc2)N(c2ccccc2)C1=O	105 % of DMSO

Sample 2
Structure (SMILES): CO[C@@H](C)c1c(Nc2ccc([C@H](N(C)C(=O)C3CCS(=O)(=O)CC3)C(F)(F)F)cc2)cnc2cc(Cl)nn12
Read-out: cell-free assay
Method: competition with immobilised ligand
Concentration: 1 µM
target	remaining binding
Death-associated protein kinase 3 (DAPK3, Homo sapiens, UniProt O43293)	91%
Serine/threonine-protein kinase ULK2 (ULK2, Homo sapiens, UniProt Q8IYT8)	96%
Phosphatidylinositol 3-kinase C2 domain-containing subunit gamma (PIK3C2G, Homo sapiens, UniProt O75747)	88%
STE20/SPS1-related proline-alanine-rich protein kinase (STK39, Homo sapiens, UniProt Q9UEW8)	50%
Phosphatidylinositol 4,5-bisphosphate 3-kinase catalytic subunit alpha isoform (PIK3CA, Homo sapiens, UniProt P42336, M1043I)	100%
1-phosphatidylinositol 3-phosphate 5-kinase (PIKFYVE, Homo sapiens, UniProt Q9Y2I7)	54%
Mitogen-activated protein kinase kinase kinase 4 (MAP3K4, Homo sapiens, UniProt Q9Y6R4)	89%
Serine/threonine-protein kinase MARK2 (MARK2, Homo sapiens, UniProt Q7KZI7)	100%
Serine/threonine-protein kinase PLK3 (PLK3, Homo sapiens, UniProt Q9H4B4)	86%
Myosin-IIIa (MYO3A, Homo sapiens, UniProt Q8NEV4)	100%
Mitogen-activated protein kinase kinase kinase kinase 2 (MAP4K2, Homo sapiens, UniProt Q12851)	100%
Casein kinase II subunit alpha' (CSNK2A2, Homo sapiens, UniProt P19784)	100%
Mitogen-activated protein kinase kinase kinase 20 (MAP3K20, Homo sapiens, UniProt Q9NYL2)	100%

Sample 3
Structure (SMILES): C=CCc1ccc(O)c(-c2cc(CC=C)ccc2O)c1
Read-out: chloride current
target	assay	conditions	normalized current
Anoctamin-1 (ANO1, Homo sapiens, UniProt Q5XXA6, del476-501/E649A)	inhibitor, whole-cell voltage clamp	100 µM, E623A mutant	0.47
Anoctamin-1 (ANO1, Homo sapiens, UniProt Q5XXA6)	inside-out patch clamp	30 µM, membrane voltage -60 mV	-0.683
TMEM16A (human) K603A/E623A	inside-out patch clamp	30 µM, membrane voltage 120 mV	1
Anoctamin-1 (ANO1, Homo sapiens, UniProt Q5XXA6, del476-501/R541A)	inside-out patch clamp	30 µM, membrane voltage -20 mV	-0.107

Sample 4
Target: Serine/threonine-protein kinase 16 (STK16, Homo sapiens, UniProt O75716)
Sequence of UniProt O75716 (whole entry, looked up): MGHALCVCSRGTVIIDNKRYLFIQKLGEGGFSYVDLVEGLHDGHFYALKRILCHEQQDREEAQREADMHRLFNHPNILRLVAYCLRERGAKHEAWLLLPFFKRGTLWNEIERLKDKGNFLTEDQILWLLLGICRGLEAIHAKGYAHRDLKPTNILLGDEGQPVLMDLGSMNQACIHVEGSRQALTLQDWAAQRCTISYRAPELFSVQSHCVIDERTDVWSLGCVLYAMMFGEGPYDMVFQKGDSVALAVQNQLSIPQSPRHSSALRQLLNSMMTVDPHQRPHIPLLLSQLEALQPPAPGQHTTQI
Read-out: enzyme activity
Action: inhibitor
Concentration: 0.5 µM
Relative to: control
SMILES	remaining activity
CNc1cc2c(Nc3cccc(Br)c3)ncnc2cn1	98.6%
N#C/C(=C(/N)SC1C=CC=CC1)c1cccc(C(O)c2ccncc2)c1 (stereo not shown)	99.6%
NC(=O)c1cccc(-c2cc(Nc3ccc(OC(F)(F)F)cc3)ncn2)c1	81.8%
O=C(O)/C=C/c1cc(Br)c(Br)c(Br)c1Br	90.3%
C[C@@H](N)[C@H]1CC[C@H](C(=O)Nc2ccncc2)CC1	98.1%
O=Nc1c(-c2c(O)[nH]c3ccccc23)[nH]c2ccccc12	54.8%
O=C(c1ccccc1)c1ccc(N2CCOCC2)cc1O	104%
NC(=O)c1ccc(-c2nc(-c3ccc4c(c3)OCCO4)c(-c3ccccn3)[nH]2)cc1	101%

A few entries again (sample 2):
target	remaining binding
Serine/threonine-protein kinase MARK2 (MARK2, Homo sapiens, UniProt Q7KZI7)	100%
Serine/threonine-protein kinase PLK3 (PLK3, Homo sapiens, UniProt Q9H4B4)	86%
Myosin-IIIa (MYO3A, Homo sapiens, UniProt Q8NEV4)	100%
Mitogen-activated protein kinase kinase kinase kinase 2 (MAP4K2, Homo sapiens, UniProt Q12851)	100%
